Measurements collected from several papers.
A part holds a random share of what one study measured.

Set 1
Target: RING finger protein unkempt homolog, zinc fingers 1-6, GST-SBP tag (UNK, Homo sapiens, UniProt Q9C0B0, residues 30-357)
UniProt Q9C0B0, sequence (30-357, looked up): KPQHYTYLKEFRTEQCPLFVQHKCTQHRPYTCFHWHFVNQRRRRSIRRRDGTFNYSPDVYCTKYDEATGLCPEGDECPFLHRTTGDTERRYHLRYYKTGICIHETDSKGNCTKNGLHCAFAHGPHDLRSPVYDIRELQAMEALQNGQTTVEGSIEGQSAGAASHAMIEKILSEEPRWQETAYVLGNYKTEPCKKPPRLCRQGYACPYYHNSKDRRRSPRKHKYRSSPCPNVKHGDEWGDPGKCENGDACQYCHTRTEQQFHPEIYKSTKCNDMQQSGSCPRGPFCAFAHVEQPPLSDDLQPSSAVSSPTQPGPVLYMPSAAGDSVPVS
Method: RNA Bind-n-Seq
Molecule type: RNA
Matrix: in vitro
Concentration: not given
Setting: RNA with constant flanks, human and mouse sites, ends assumed
Baseline: input RNA pool
Reading: higher = stronger binding
Measurement: bound/input enrichment
Oligonucleotide = GGGAGUUCUACAGUCCGACGAUCGAGACCCUGGGAGCCUUCCAGCCGUCAGGCUGCACGCACGUACCUGCUCUAGCUUGCUGGGUUUGUUGUUUGUUUCUUUAUGUAGACUUUGUCCUUGGCGUAAUUUCCCACUCUAGUAAACAACAGAGGAUUGAGCAUCA; result = 0.823 ratio
Oligonucleotide = GGGAGUUCUACAGUCCGACGAUCCUGCUAGUGCAUGGGGCUUUAGCCUUUCCUCUAGGGUUAGAUUCCUACCAUGGCUGUGUUAUAGCGGCUGCCCGCUAUGGCCGGGGCCGGGUGGUUGUGACUGGCCAUAAGGUAUUAUUCCAACAGAGGAUUGAGCAUCA; result = 0.284 ratio
Oligonucleotide = GGGAGUUCUACAGUCCGACGAUCUCUUGGUCUCCAAGUCCUGCACCUUACUUUGAAACACCACUGGCUCCCUUUCCCAAUGGUAGUUUUGUGAAUGGCUUUAGUUCACCAGGAUCUUACAAAACAAAUGCUGCUGCUAUGAAUCAACAGAGGAUUGAGCAUCA; result = 0.428 ratio
Oligonucleotide = GGGAGUUCUACAGUCCGACGAUCUUUAUCCAGGGCGAAGCUUUGGACCCGCAGCAUGUCUGCAACCCAGCCAUUUUCAGGCUAAUAGCUCGUCAGCUUGCUAAAAUCCAUGCUAUUCAUGCGCACAAUGGCUGGAUCCCCAAACAACAGAGGAUUGAGCAUCA; result = 0.125 ratio

Set 2
Target: Interferon regulatory factor 5, full length, phosphomimetic (IRF5, Homo sapiens, UniProt Q13568-2, residues 1-514, K96S/S451D/S453D/S456D/S462D)
Method: protein-binding microarray
Molecule type: double-stranded DNA, one strand shown
Matrix: in vitro
Concentration: 250 nM
Setting: 60-bp whole probe
Added: salmon DNA 0.4 mg/ml
Baseline: random background probes
Reading: higher = stronger binding
Measurement: log fluorescence
Constant ends, left off below: GCCTAGCAC … GTCTTGATTCGCTTGACGCTGCTG
Oligonucleotide = GACGGTATCGGGACTGTGGACGTGCTA; result = 1.26 z-score
Oligonucleotide = TTAGGTTTCGGGACTGGCTTAGTGCTA; result = 6.14 z-score
Oligonucleotide = GGCAGGAATAAAGGAGCAGCGTGCTAG; result = -0.223 z-score
Oligonucleotide = TTAGATTTCAGGTATCGATTAGTGCTA; result = 4.81 z-score
Oligonucleotide = GACGTACTGGGTATCGGGACGTGCTAG; result = 0.346 z-score
Oligonucleotide = GACGGTATCGACTTTCGGGTCGTGCTA; result = 7.76 z-score
Oligonucleotide = TCTACAATGGCTTTGCCTTTGTGCTAG; result = -0.298 z-score

Set 3
Target: Prothrombin, mature alpha-thrombin (F2, Homo sapiens, UniProt P00734)
Method: aptamer microarray, sandwich
Molecule type: DNA with 2'F-ANA
Matrix: in vitro
Concentration: 200 nM
Setting: whole 15-mer aptamer, many near background
Added: Cy3 exosite-II aptamer, 400 nM
Reading: higher = stronger binding
Measurement: mean fluorescence intensity
Oligonucleotide: GGTTGGTGTGGTTGG
Modification = 2'F-ANA at 1 2 3 6 8 9 15; result = 247 a.u.
Modification = 2'F-ANA at 1 2 3 5 6 7 13 14 15; result = 47.5 a.u.
Modification = 2'F-ANA at 2 6 9 12 14; result = 161 a.u.
Modification = 2'F-ANA at 1 2 3 5 6 7 12 13; result = 80.8 a.u.
Modification = 2'F-ANA at 1 3 7 9 10 12; result = 118 a.u.

Further values, each from its own experiment
Molecule = PhoQ, residues 284 288 289 292 302 303 SLGVVW; target = PhoP, residues 12 14 15 18 19 SYFRT (Escherichia coli, UniProt P23836); test = Sort-seq, measured: YFP reporter; system = E. coli; conditions = PhoQ-PhoP variant library, added: 10 µM Mg2+; how to read = baseline: high Mg2+ state, higher = stronger signaling; measurement = fold induction; result = 7.27

Some of these lines once more (set 3):
Modification = 2'F-ANA at 1 3 7 9 10 12; result = 118 a.u.
